Experimental data of several laboratories.
Protocols differ between the studies behind these lines. Values joined by “and” are separate records of one study, mostly repeats; a detail may differ. ± marks the error that the study gave.

With N=C(N)NCCC[C@H](NC(=O)[C@H](CCCNC(=N)N)NC(=O)[C@H](CCCNC(=N)N)NC(=O)[C@H](CCC(N)=O)NC(=O)[C@H](CCCNC(=N)N)NC(=O)[C@H](CCCNC(=N)N)NC(=O)[C@H](CCCCN)NC(=O)[C@H](CCCCN)NC(=O)[C@H](CCCNC(=N)N)NC(=O)CNC(=O)[C@H](Cc1ccc(O)cc1)NC(=O)[C@H](Cc1ccccc1)NC(=O)[C@H](Cc1ccccc1)NC(=O)[C@H](Cc1ccccc1)NC(=O)OCC1c2ccccc2-c2ccccc21)C(=O)O the health score was 5 (C57BL/6 mice; intraperitoneal, 20 mg/kg, 0.5 h; direction not given).
With CCCC[C@H]1C(=O)N(C)[C@@H](CCCC)C(=O)N[C@@H](CCCNC(=O)CN2CCN(CC(=O)O)CCN(CC(=O)O)CCN(CC(=O)O)CC2)C(=O)N[C@H](C(=O)NCC(N)=O)CSCC(=O)N[C@@H](Cc2ccc(O)cc2)C(=O)N(C)[C@@H](C)C(=O)N[C@@H](CC(N)=O)C(=O)N2CCC[C@H]2C(=O)N[C@@H](Cc2c[nH]cn2)C(=O)N[C@@H](CC(C)C)C(=O)N(C)CC(=O)N[C@@H](Cc2c[nH]c3ccccc23)C(=O)N[C@@H](CO)C(=O)N[C@@H](Cc2c[nH]c3ccccc23)C(=O)N1C [gallium-68 labelled] the tissue uptake was 34.4 ± 11.7 %ID/g (NOD/SCID mice, CHO-hPD-L1 xenograft, kidney; 60 min, PBS pretreatment).
COc1ccc(CNc2ccc3c(c2)S(=O)(=O)C=C3)cc1 gave a spleen weight of 0.179 g (male C57BL/6 mice; i.p., 20 mg/kg, day 8, repeated dosing).
O=C(O)c1ccccc1/C=N/Nc1nc(-c2ccccc2Cl)cs1: “maximum tolerated dose” 1000 mg/kg (ICR mouse, male; oral, 15 (unit not given), single dose).
CC[C@H](C)[C@H](NC(=O)[C@H](Cc1ccc(O)cc1)NC(=O)[C@@H](NC(=O)[C@H](CCCNC(=N)N)NC(=O)[C@@H](N)CC(=O)O)C(C)C)C(=O)N[C@@H](Cc1c[nH]cn1)C(=O)N1CCC[C@H]1C(=O)O gave a half-life of 30.9 ± 12.6 min (Beagle dogs, both sexes, plasma; subcutaneous, 10 mg/kg/day, day 0).
CC(C)C[C@@H](NC(=O)[C@@H](CCCNC(=N)N)NC(=O)[C@@H](Cc1c[nH]cn1)NC(=O)[C@@H](Cc1c[nH]c2ccccc12)NC(=O)[C@@H](Cc1c[nH]cn1)NC(=O)[C@@H](Cc1ccccc1)NC(=O)[C@H](NC(=O)[C@@H](Cc1ccc(O)cc1)NC(=O)CNC(=O)CNC(=O)CCOCCOCCOCCNC(=O)CN1CCN(CC(=O)O)CCN(CC(=O)O)CC1)[C@H](C)O)C(=O)N[C@H](CC(N)=O)C(=O)N1CCC[C@@H]1C(=O)O [gallium-68 labelled] has a tumour-to-tissue ratio of 0.61 ± 0.13 (male C57BL/6 mice; intravenous, 1.85 MBq, 60 min, added: GP12 blocking; baseline: tumour over liver).
CC[C@H](C)[C@H](NC(=O)CNC(=O)[C@H](CC(C)C)NC(=O)[C@H](Cc1ccccc1)NC(=O)CN)C(=O)N[C@@H](CC(C)C)C(=O)N[C@@H](Cc1ccccc1)C(=O)N[C@@H](Cc1c[nH]cn1)C(=O)NCC(=O)N[C@H](C(=O)N[C@@H](Cc1c[nH]cn1)C(=O)N[C@@H](Cc1c[nH]cn1)C(=O)NCC(=O)N[C@@H](CCCNC(=N)N)C(=O)N[C@@H](CCCCN)C(=O)N[C@@H](CCCCN)C(=O)N[C@@H](C)C(=O)N[C@@H](CC(C)C)C(=O)N[C@@H](Cc1c[nH]cn1)C(=O)N[C@@H](CCSC)C(=O)N[C@@H](CC(N)=O)C(=O)N[C@@H](CO)C(=O)N[C@@H](CCC(=O)O)C(=O)N[C@@H](CCCNC(=N)N)C(=O)N[C@@H](CCCNC(=N)N)C(=O)N[C@@H](CO)C(=O)O)C(C)C — result for “chronic toxic concentration”: 25 µM (zebrafish embryos 28 hpf, E3 medium; 24 h).
The tissue uptake of CC[C@H](C)[C@H](NC(=O)[C@H](CCCNC(=N)N)NC(=O)[C@H](CCCCN)NC(=O)[C@H](Cc1ccc(O)cc1)NC(=O)[C@H](CC(=O)O)NC(=O)[C@H](C)NC(=O)CNC(=O)CCOCCOCCOCCNC(=O)CN1CCN(CC(=O)O)CCN(CC(=O)O)CCN(CC(=O)O)CC1)C(=O)N[C@H](C(=O)N[C@@H](CC(C)C)C(=O)N[C@@H](CCCCN)C(=O)N[C@H](C(=O)N[C@@H](CC(N)=O)C(N)=O)C(C)C)[C@@H](C)O [copper-64 labelled] is reported as 3.82 ± 1.31 %ID/g (ex vivo gamma counting; C57BL/6J male mice, B16-F10 tumour, liver; intravenous, 1.85 MBq, 100 min).
CC[C@H](C)[C@H](NC(=O)[C@H](CCCN)NC(=O)[C@H](CCCNC(=N)N)NC(=O)[C@@H]1CCCN1C(=O)[C@@H]1CCCN1C(=O)[C@H](CCCNC(=N)N)NC(=O)[C@@H]1CCCN1C(=O)[C@H](CCCNC(=N)N)NC(=O)[C@@H]1CCCN1C(=O)[C@H](CC(C)C)NC(=O)[C@H](Cc1ccc(O)cc1)NC(=O)[C@@H]1CCCN1C(=O)[C@@H]1CCCN1C(=O)[C@H](CCCCN)NC(=O)[C@H](CC(=O)O)NC(=O)[C@@H](N)C(C)C)C(=O)N[C@@H](Cc1ccc(O)cc1)C(=O)N[C@@H](CC(N)=O)C(=O)N[C@@H](CCCN)C(N)=O — result for urine concentration: “not detected” (LC-MS; CD-1 mice, urine; subcutaneous, dose not given, 1 h).
With O=C1NC2(CC2)COc2ncc(F)cc2[C@H]2COCCN2c2ccn3ncc1c3n2 the basophil percentage was 0.07 ± 0.07% (Sprague-Dawley rats, male, blood; oral, 2.5 mg/kg/day, end of treatment, 4-week subacute toxicity).
For CSCC[C@H](N)C(=O)N[C@@H](C)C(=O)N[C@@H](CCCNC(=N)N)C(=O)N[C@@H](CCCNC(=N)N)C(=O)N[C@@H](CC(=O)O)C(=O)N[C@@H](CCCCN)C(=O)N[C@H](C(=O)N[C@@H](CC(=O)O)C(=O)N[C@@H](Cc1ccccc1)C(=O)N[C@@H](C)C(=O)N[C@@H](CCCNC(=N)N)C(=O)N[C@@H](CCCNC(=N)N)C(=O)N[C@@H](CCCNC(=N)N)C(=O)N[C@@H](CCCNC(=N)N)C(=O)NCCCCCC(=O)NCCCCC(NC(=O)CCCCCNC(=O)[C@H](CCCNC(=N)N)NC(=O)[C@H](CCCNC(=N)N)NC(=O)[C@H](CCCNC(=N)N)NC(=O)[C@H](CCCNC(=N)N)NC(=O)[C@H](C)NC(=O)[C@H](Cc1ccccc1)NC(=O)[C@H](CC(=O)O)NC(=O)[C@@H](NC(=O)[C@H](CCCCN)NC(=O)[C@H](CC(=O)O)NC(=O)[C@H](CCCNC(=N)N)NC(=O)[C@H](CCCNC(=N)N)NC(=O)[C@H](C)NC(=O)[C@@H](N)CCSC)[C@@H](C)O)C(=O)NCCCCC(NC(=O)C(CCCCNC(=O)CCCCCNC(=O)[C@H](CCCNC(=N)N)NC(=O)[C@H](CCCNC(=N)N)NC(=O)[C@H](CCCNC(=N)N)NC(=O)[C@H](CCCNC(=N)N)NC(=O)[C@H](C)NC(=O)[C@H](Cc1ccccc1)NC(=O)[C@H](CC(=O)O)NC(=O)[C@@H](NC(=O)[C@H](CCCCN)NC(=O)[C@H](CC(=O)O)NC(=O)[C@H](CCCNC(=N)N)NC(=O)[C@H](CCCNC(=N)N)NC(=O)[C@H](C)NC(=O)[C@@H](N)CCSC)[C@@H](C)O)NC(=O)CCCCCNC(=O)[C@H](CCCNC(=N)N)NC(=O)[C@H](CCCNC(=N)N)NC(=O)[C@H](CCCNC(=N)N)NC(=O)[C@H](CCCNC(=N)N)NC(=O)[C@H](C)NC(=O)[C@H](Cc1ccccc1)NC(=O)[C@H](CC(=O)O)NC(=O)[C@@H](NC(=O)[C@H](CCCCN)NC(=O)[C@H](CC(=O)O)NC(=O)[C@H](CCCNC(=N)N)NC(=O)[C@H](CCCNC(=N)N)NC(=O)[C@H](C)NC(=O)[C@@H](N)CCSC)[C@@H](C)O)C(N)=O)[C@@H](C)O (stereo partly drawn), the tissue distribution was 6.48% and 2.96% and 7.04% (C57BL/6 mouse female, liver; dose not given, 6 h; baseline: total).
For CC(C)=CCC/C(C)=C\CCn1cc(CC(P(=O)(O)O)P(=O)(O)O)nn1, the biliary excretion was 0.77% (mouse CD-1; intravenous, 0.3 mg/kg, 8 h; baseline: dose).
